Published values collected from several papers.
Protocols differ between the studies behind these lines. Values joined by “and” are separate records of one study, mostly repeats; a detail may differ. ± marks the error that the study gave.
Kir3.1/Kir3.4: Kir3.1/Kir3.4 (Homo sapiens, UniProt P48544+P48549)
UniProt P48544, sequence (whole entry, looked up): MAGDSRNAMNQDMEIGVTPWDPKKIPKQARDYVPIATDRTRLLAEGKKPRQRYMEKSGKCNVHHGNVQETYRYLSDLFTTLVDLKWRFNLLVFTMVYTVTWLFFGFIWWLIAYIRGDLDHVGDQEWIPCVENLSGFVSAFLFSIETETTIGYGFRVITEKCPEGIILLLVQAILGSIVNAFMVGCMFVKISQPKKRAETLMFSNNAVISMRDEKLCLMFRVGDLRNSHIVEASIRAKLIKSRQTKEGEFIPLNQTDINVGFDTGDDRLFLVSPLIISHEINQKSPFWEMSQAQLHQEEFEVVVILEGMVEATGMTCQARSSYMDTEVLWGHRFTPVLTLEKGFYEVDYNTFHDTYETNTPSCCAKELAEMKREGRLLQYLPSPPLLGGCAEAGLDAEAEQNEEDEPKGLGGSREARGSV
UniProt P48549, sequence (whole entry, looked up): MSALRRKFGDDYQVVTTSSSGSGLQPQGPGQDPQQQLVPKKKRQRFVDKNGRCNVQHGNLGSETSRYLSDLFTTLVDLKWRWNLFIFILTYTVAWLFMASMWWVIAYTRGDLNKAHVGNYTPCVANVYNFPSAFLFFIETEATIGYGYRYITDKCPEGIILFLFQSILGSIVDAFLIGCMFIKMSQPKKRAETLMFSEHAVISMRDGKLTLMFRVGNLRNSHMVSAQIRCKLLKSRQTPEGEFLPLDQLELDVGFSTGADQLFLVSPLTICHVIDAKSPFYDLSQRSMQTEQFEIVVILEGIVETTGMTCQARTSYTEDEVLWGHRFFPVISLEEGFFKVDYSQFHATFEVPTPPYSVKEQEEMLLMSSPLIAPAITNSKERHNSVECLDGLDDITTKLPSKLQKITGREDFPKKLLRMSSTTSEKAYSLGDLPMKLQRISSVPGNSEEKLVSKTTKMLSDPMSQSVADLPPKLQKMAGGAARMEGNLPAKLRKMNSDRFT
pyrD: Dihydroorotate dehydrogenase (quinone) (pyrD, Acinetobacter baumannii, UniProt B7GZW7)
UniProt B7GZW7, sequence (whole entry, looked up): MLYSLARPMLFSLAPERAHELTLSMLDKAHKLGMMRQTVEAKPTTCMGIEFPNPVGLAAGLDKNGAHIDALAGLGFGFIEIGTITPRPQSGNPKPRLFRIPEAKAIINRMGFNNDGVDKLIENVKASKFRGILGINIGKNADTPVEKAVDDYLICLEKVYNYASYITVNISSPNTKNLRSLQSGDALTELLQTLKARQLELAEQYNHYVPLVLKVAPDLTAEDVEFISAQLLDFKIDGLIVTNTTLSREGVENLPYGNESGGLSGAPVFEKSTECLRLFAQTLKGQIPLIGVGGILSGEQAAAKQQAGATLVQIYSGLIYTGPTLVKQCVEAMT
AKR1B1: Aldo-keto reductase family 1 member B1 (AKR1B1, Homo sapiens, UniProt P15121)
TOP2A: DNA topoisomerase 2-alpha (TOP2A, Homo sapiens, UniProt P11388)
UniProt P11388, sequence (whole entry, looked up): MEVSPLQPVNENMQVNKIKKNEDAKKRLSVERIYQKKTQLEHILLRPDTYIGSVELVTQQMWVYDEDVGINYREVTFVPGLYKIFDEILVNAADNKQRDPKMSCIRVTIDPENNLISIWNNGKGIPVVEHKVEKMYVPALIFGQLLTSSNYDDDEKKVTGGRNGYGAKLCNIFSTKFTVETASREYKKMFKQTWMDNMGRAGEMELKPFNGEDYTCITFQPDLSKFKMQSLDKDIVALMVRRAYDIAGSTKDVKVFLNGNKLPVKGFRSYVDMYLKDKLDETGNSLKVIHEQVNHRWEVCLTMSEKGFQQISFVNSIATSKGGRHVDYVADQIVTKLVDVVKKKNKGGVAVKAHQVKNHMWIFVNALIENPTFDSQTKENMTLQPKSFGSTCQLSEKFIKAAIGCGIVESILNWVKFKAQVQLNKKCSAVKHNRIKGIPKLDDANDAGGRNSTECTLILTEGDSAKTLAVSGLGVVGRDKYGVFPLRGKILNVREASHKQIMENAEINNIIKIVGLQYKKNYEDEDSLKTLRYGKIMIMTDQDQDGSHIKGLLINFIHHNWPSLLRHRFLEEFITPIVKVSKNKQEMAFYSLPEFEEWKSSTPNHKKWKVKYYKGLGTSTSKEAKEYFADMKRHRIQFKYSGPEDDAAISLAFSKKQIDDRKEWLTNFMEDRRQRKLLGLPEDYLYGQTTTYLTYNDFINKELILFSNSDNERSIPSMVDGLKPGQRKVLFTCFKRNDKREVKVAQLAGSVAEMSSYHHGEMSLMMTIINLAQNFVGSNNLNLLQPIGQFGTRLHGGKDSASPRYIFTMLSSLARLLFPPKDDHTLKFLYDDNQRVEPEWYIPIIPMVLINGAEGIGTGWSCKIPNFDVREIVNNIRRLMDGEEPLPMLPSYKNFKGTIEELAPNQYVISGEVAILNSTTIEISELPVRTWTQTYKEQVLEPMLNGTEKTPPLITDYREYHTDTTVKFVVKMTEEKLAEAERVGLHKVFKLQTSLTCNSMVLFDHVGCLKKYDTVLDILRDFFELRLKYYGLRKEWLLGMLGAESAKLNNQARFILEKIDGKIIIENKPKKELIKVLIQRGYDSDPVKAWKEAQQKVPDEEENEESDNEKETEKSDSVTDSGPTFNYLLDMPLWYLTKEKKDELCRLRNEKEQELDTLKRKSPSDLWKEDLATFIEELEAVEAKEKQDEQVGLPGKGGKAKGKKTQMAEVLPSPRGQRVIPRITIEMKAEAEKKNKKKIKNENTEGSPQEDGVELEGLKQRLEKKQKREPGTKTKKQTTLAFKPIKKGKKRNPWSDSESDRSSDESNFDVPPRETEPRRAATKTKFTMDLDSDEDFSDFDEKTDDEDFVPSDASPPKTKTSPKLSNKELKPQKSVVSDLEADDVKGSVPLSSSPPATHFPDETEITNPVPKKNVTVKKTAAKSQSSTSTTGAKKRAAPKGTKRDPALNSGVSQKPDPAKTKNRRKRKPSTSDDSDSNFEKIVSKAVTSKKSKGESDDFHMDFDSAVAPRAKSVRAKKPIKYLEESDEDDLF
T1: ssDNA, aptamer; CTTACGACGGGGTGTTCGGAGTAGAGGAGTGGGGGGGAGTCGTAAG
T2: riboswitch RNA A38C (Bacillus); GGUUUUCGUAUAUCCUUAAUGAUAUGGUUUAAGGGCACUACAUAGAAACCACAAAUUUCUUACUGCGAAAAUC
T3: riboswitch RNA yjdF aptamer domain (Bacillus subtilis); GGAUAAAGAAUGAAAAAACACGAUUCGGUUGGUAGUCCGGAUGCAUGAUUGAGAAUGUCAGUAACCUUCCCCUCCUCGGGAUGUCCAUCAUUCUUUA
UniProt P05164, sequence (whole entry, looked up): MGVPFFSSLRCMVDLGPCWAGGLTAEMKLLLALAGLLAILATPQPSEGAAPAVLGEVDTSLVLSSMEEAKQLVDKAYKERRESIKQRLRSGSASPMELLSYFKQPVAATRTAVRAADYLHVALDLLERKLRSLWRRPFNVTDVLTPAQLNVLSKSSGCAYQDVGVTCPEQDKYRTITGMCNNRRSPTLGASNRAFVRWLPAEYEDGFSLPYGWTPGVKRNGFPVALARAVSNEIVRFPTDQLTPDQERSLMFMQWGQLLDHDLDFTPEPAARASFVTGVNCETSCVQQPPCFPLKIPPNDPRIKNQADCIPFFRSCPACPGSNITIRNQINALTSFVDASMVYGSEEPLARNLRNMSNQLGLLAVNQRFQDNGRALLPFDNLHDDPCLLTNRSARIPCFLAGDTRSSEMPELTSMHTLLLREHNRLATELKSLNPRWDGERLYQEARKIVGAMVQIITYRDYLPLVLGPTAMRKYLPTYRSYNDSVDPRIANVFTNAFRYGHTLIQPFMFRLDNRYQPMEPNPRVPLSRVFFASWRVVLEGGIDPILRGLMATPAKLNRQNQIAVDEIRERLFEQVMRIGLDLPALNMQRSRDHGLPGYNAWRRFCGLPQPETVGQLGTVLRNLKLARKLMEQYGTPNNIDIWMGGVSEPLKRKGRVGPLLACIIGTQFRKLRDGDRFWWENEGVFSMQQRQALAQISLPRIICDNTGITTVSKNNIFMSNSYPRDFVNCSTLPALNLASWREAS
UniProt Q64663, sequence (whole entry, unmodified, looked up): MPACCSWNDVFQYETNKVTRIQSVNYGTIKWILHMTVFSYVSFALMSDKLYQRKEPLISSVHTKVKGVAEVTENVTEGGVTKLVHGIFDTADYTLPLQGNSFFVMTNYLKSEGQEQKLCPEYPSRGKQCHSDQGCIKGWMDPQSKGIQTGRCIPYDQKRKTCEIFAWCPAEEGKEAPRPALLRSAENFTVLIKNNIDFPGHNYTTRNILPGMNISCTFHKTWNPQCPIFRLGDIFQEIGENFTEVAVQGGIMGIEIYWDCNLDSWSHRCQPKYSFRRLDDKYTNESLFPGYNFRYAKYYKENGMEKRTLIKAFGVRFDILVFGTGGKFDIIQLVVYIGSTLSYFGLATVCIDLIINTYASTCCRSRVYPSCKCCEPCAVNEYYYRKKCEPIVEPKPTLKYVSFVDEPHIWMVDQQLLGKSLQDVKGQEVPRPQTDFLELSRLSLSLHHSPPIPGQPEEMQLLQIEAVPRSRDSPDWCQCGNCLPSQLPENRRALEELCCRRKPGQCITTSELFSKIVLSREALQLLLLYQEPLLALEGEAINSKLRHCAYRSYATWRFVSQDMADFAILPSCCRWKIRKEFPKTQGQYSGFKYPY
UniProt Q16774, sequence (whole entry, unmodified, looked up): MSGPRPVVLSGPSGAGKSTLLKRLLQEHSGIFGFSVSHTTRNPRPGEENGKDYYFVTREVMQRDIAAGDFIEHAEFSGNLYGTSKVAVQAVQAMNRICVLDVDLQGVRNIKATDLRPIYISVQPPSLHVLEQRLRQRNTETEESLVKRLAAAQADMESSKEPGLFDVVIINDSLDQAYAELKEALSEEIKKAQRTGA
UniProt Q695T7, sequence (whole entry, looked up): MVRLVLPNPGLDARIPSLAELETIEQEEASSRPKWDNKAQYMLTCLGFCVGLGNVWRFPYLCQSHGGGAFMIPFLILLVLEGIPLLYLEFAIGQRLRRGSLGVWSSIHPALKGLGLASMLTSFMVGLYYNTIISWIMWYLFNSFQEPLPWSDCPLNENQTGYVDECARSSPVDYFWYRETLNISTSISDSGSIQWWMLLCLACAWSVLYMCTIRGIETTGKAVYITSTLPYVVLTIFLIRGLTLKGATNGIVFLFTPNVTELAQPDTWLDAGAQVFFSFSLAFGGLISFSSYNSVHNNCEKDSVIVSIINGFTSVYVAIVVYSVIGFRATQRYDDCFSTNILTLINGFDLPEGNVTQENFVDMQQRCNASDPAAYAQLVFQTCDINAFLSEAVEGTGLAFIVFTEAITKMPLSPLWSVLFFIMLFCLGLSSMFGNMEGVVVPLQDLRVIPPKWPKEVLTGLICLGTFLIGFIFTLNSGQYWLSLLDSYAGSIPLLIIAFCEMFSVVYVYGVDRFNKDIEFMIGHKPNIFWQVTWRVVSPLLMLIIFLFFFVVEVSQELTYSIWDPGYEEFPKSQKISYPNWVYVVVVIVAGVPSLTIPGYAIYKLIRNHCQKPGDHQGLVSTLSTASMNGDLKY

The Emax of `O=C(COc1ccc(Cl)cc1Cl)Nc1cc(C2CC2)nn1CC(F)(F)F` is reported as 68% (Kir3.1/Kir3.4; thallium flux, activator; HEK293; relative to: standard compound).
With `N[C@@H](Cc1ccccc1)C(=O)Nc1ccc2ccccc2c1` the Km was 25 µM (rat aminopeptidase III; substrate).
`Cc1cc(Nc2ccc(S(F)(F)(F)(F)F)cc2)n2nc(C(F)(F)F)nc2n1` has a robust Z-score of 24.6 (pyrD; enzyme activity, inhibitor, colorimetric HTS, item: DCIP reduction; 3 µM; direction not given).
For `Nc1ncnc2c1ncn2[C@@H]1O[C@H](COP(=O)(O)OP(=O)(O)OP(=O)(O)O)[C@@H](O)[C@H]1O`, the Kd was 788 nM (T1, ssDNA, aptamer; ITC).
The robust Z-score of `Nc1cc(Nc2ccc(C(F)(F)F)cc2)n2ncnc2n1` is reported as 17.8 (pyrD; enzyme activity, inhibitor, colorimetric HTS, item: DCIP reduction; 3 µM; direction not given).
`Nc1nc2c(ncn2[C@H]2C[C@H](O)[C@@H](CO)O2)c(=O)[nH]1` has a Kd of 800 nM (T2, riboswitch RNA A38C (Bacillus); ITC; KCl 50 mM).
The remaining binding of `C=CC(=O)N1CCC(COCC(=O)N2CCN(c3nc(-c4cnc(N)nc4C(F)F)nc(N4CCOC[C@@H]4C)n3)CC2)CC1` is reported as 76% (Tyrosine-protein kinase ABL1, phosphorylated (ABL1, Homo sapiens, UniProt P00519, Y253F); KINOMEscan; 1 µM).
`CSCC[C@H](N)C(=O)Nc1ccc2ccccc2c1` gave a Km of 5 µM (rat aminopeptidase III; substrate).
The normalized current of `Nc1ncnc2c1ncn2[C@@H]1O[C@H](COP(=O)(O)OP(=O)(O)OP(=O)(O)O)[C@@H](O)[C@H]1O` is reported as 0.88 and 0.94 and 0.96 (P2X purinoceptor 7 (P2rx7, Rattus norvegicus, UniProt Q64663, I214A/Q143A); ion current, agonist, two-electrode voltage clamp; Xenopus laevis oocytes; 900 µM; relative to: highest concentration response).
`FC(F)(F)c1cccc(-c2n[nH]c(=S)o2)c1` has a fluorescence increase of 81.4 ± 0.77% (P2X purinoceptor 4 (P2RX4, Homo sapiens, UniProt Q99571); calcium mobilization; MCF7 stably transfected; 100 µM, together with: ATP 100 µM).
For `CCNC(=O)/C=C/c1cccc(Br)c1`, the L-leucine uptake was 7.64 nmol/6 min/mg protein and 8.34 nmol/6 min/mg protein and 8.12 nmol/6 min/mg protein (SLC6A19 (Homo sapiens, UniProt Q695T7); inhibitor, radiolabelled uptake; CHO-BC cells; 100 µM, with Na+, together with: L-[14C]leucine, GPNA 3 mM, JPH203 3 µM).
For `COc1cc2ccc(=O)oc2cc1O`, the reaction velocity was 8.8 ± 0.3 nmol/min/mg (uncharacterized protein (Solanum tuberosum, UniProt M0ZZL3); inhibitor, UDP-Glo; together with: 100 µM UDP-glucose).
`N#Cc1ccsc1NC(=O)COc1ccc(Cl)cc1Cl` — result for activity: “inactive” (Kir3.1/Kir3.4; activator, thallium flux; HEK293; concentration not given).
The ligand efficiency of `O=C(O)CC12CC3CC(CC(C3)C1)C2` is reported as 0.38 kcal/mol/heavy atom (DNA topoisomerase 2-binding protein 1, BRCT7-8 domains (TOPBP1, Homo sapiens, UniProt Q92547); binding, NMR HSQC titration; BRCT7-8 domains).
For `CCc1cc(NC(=O)COc2cccc(Cl)c2Cl)n(C2CCC(F)(F)CC2)n1`, the Emax was 62% (Kir3.1/Kir3.4; thallium flux, activator; HEK293; relative to: standard compound).
For `O=C(Nc1ccc(Cl)c(Br)c1)c1ccc2c(c1)C(=O)NC2=O`, the selectivity ratio was greater than 3330 (MAOB (Homo sapiens, UniProt P27338); relative to: IC50 MAO-A over IC50 MAO-B).
`c1coc(-c2n[nH]cc2-c2ccnc3ccccc23)c1` — result for “log2 fold change”: -0.29 (Cyclin-dependent kinase 1 (CDC28, Candida albicans, UniProt P43063); kinase binding, MIB/MS competition; Candida albicans lysate; 1 µM; relative to: DMSO, negative = stronger binding).
`O=C1S/C(=C\c2ccc(Cl)cc2)C(=O)N1Cc1nc2ccccc2s1` has a log IC50 of 2.21 log nM (AKR1B1; enzyme activity, inhibitor).
`NC/C(=C\F)COc1cccc(Cn2c(=S)[nH]c(=O)c3[nH]cnc32)c1` has an inhibition of 16.9% (CACNA1C (Homo sapiens, UniProt Q13936); peak ion current, inhibitor, automated patch clamp; 30 µM, pulse 1).
`Nc1ccn([C@H]2C[C@H](O)[C@@H](COP(=O)(O)OP(=O)(O)OP(=O)(O)O)O2)c(=O)n1` has a kcat of 0.025 min⁻¹ (DNA polymerase beta (POLB, Homo sapiens, UniProt P06746); substrate; undamaged template).
For `CCN1CCC[C@H]1CNC(=O)c1c(O)c(Cl)cc(Cl)c1OC`, “log2 fold change” read -0.45 (PROKR2 (Homo sapiens, UniProt Q8NFJ6); β-arrestin recruitment, TANGO luminescence, item: PK2; concentration not given; relative to: basal luminescence).
`NCCS(=O)(=O)O`: “normalised MST signal” -0.00438 (SLC6A6 (Homo sapiens, UniProt P31641, S402A); binding, microscale thermophoresis; 977 nM, room temperature, together with: 50 nM labelled protein; higher = more binding).
For `O=C(O)c1ccc(C(=O)O)c(-c2c3ccc(=O)cc-3oc3cc(O)ccc23)c1`, the Km was 325 ± 222 µM (SLC22A11 (Homo sapiens, UniProt Q9NSA0); substrate; CHO cells expressing human OAT4; 5 min, pH 7.4).
The inhibition of `CC1=NNC(=S)NC(=O)C1/N=N/c1ccc(S(N)(=O)=O)cc1` (centres unmarked) is reported as 22.739 ± 0.000673% (bovine α-glucosidase; enzyme activity, inhibitor, glucose oxidase; 10 µg/mL, together with: maltose).
For `N=C(N)c1ccc(-c2cc3ccc(C(=N)N)cc3[nH]2)cc1`, the Kd was 4.5 nM (T3, riboswitch RNA yjdF aptamer domain (Bacillus subtilis); fluorescence titration).
Under “ATP hydrolysis rate”, `O=c1nc(SCc2cc(F)cc(C(F)(F)F)c2)nc(SCc2ccc3nc(Cl)ccc3c2)[nH]1` is recorded as 2.27 µM/min and 1.62 µM/min (TOP2A; ATPase activity; 15.6 µM, together with: ATP 0.75 mM).
With `COc1cc(/C=C/c2ccc(O)cc2)cc(OC)c1` the binding stoichiometry was 1.02 ± 0.006 (O-methyltransferase (Sorghum bicolor, UniProt A0A1B6PFV1); ITC; concentration not given, together with: SAH+).
Under “normalised MST signal”, `[H]/N=C(/N)NCC(=O)O` is recorded as 0.00654 (SLC6A6 (Homo sapiens, UniProt P31641, G62A); binding, microscale thermophoresis; 122 nM, room temperature, together with: 50 nM labelled protein; higher = more binding).
`Cc1cc(Nc2ccc(S(F)(F)(F)(F)F)cc2)n2ncnc2n1` gave a robust Z-score of 23.8 (pyrD; enzyme activity, inhibitor, colorimetric HTS, item: DCIP reduction; 3 µM; direction not given).
Under activity, `O=C(COc1cccc(Cl)c1Cl)Nc1cc(C2CCC2)nn1CC(F)(F)F` is recorded as “inactive” (Kir3.1/Kir3.4; activator, thallium flux; HEK293; concentration not given).
With `Nc1ncnc2c1ncn2[C@@H]1O[C@H](COP(=O)(O)CP(=O)(O)OP(=O)(O)O)[C@@H](O)[C@H]1O` the specific binding was 160 CCPM and 204 CCPM (P2X purinoceptor 1 (P2RX1, Homo sapiens, UniProt P51575, K215A); saturation binding; HEK293; 1 nM).
For `Nc1nc2c(ncn2[C@@H]2O[C@H](COP(=O)(O)O)[C@@H](O)[C@H]2O)c(=O)[nH]1`, the reaction rate was 12.8 s⁻¹ and 12.1 s⁻¹ and 11.5 s⁻¹ (GUK1 (Homo sapiens, UniProt Q16774, D103A); enzyme activity, NADH-coupled; 250 µM).
For `C[C@H](CCC(C)(C)O)[C@H]1CC[C@H]2[C@@H]3CC=C4C[C@@](C)(O)CC[C@]4(C)[C@H]3CC[C@]12C`, the current response was 123 ± 6.7% (Glutamate NMDA receptor; GRIN1/GRIN2B (GRIN1/GRIN2B, Homo sapiens, UniProt Q05586+Q13224, Q556A); positive allosteric modulator, two-electrode voltage clamp; Xenopus oocytes expressing GluN1-Q556A; 10 µM, 0.02% cremophor, together with: 100 µM glutamate and glycine; relative to: without compound).
Under “effective gating valence”, `CN(C)C(=O)C(CCN1CCC(O)(c2ccc(Cl)cc2)CC1)(c1ccccc1)c1ccccc1` is recorded as 1.48 elementary charges (Calcium-activated potassium channel subunit alpha-1, with LRRC26 γ1 subunit (KCNMA1, Homo sapiens, UniProt Q12791); BK current, inside-out patch clamp; excised membrane patch; 10 µM, γ1 subunit coexpressed, together with: nominally 0 Ca2+ cytosolic).
With `C=CC(=O)N1CCC[C@@H](n2nc(-c3ccc(Oc4ccccc4)cc3)c3c(N)ncnc32)C1` the remaining activity was 148% (TNK1 (Homo sapiens, UniProt Q13470); 1 µM).
The fold enrichment of `COCCC(=O)N1CCC(Oc2ccccc2)C1` (centres unmarked) is reported as 1 (Protein transport protein Sec31A (SEC31A, Homo sapiens, UniProt O94979); binding, affinity selection mass spectrometry; relative to: other proteins in batch).
`O=C(CN1C(=O)S/C(=C\c2cccc(Br)c2)C1=O)c1ccc([N+](=O)[O-])cc1` gave a Hill slope of -0.586 (AKR1B1; enzyme activity, inhibitor).
`O=c1nc(SCc2ccc(C(F)(F)F)cc2)nc(SCc2csc3ccc(Cl)cc23)[nH]1` has a decatenated DNA of 94.4% (TOP2A; decatenation; 7.8 µM, replicate 2).
With `COc1cc(F)ccc1-c1ncnc(Nc2cccc(C[S@](C)(=N)=O)c2)n1` the remaining activity was 96% (PIP5K1A (Homo sapiens, UniProt Q99755); kinase activity; 10 µM, together with: 10 µM ATP).
Under “thermal stability ratio”, `O=C(COP(=O)(O)O)[C@@H](O)[C@H](O)[C@H](O)COP(=O)(O)O` is recorded as 0.505 (HDAC2 (Homo sapiens, UniProt Q92769); thermal proteome profiling; HepG2 cell lysate; concentration not given, 57 over 37 °C, mean; relative to: compound over control).
For `CO[C@H]1O[C@H](COS(=O)(=O)O)[C@@H](O[C@@H]2O[C@@H](C(=O)O)[C@@H](O[C@H]3O[C@H](COS(=O)(=O)O)[C@@H](O[C@@H]4O[C@H](C(=O)O)[C@@H](O[C@H]5O[C@H](COS(=O)(=O)O)[C@@H](O)[C@H](O)[C@H]5NS(=O)(=O)O)[C@H](O)[C@H]4O)[C@H](OS(=O)(=O)O)[C@H]3NS(=O)(=O)O)[C@H](O)[C@H]2OS(=O)(=O)O)[C@H](O)[C@H]1NS(=O)(=O)O`, the association constant was 26500 ± 5560 M⁻¹ (Beta-2-glycoprotein 1, domain V (APOH, Homo sapiens, UniProt P02749, V266L); isothermal titration calorimetry; 298 K, together with: 150 mM NaCl).
Under “basal cAMP formation”, `CC[C@H](C)[C@H](NC(=O)[C@H](CCC(=O)O)NC(=O)[C@H](C)NC(=O)[C@@H](NC(=O)[C@H](Cc1c[nH]cn1)NC(=O)[C@H]1CCC[C@@H]1NC(=O)[C@H](CCC(=O)O)NC(=O)[C@H](C)NC(=O)[C@H]1CCC[C@@H]1NC(=O)[C@H](CC(C)C)NC(=O)[C@H](Cc1c[nH]cn1)NC(=O)[C@H](Cc1c[nH]cn1)NC(=O)[C@H]1CCC[C@@H]1NC(=O)[C@H](Cc1ccccc1)NC(=O)[C@H](Cc1ccccc1)NC(=O)[C@H](CCCNC(=N)N)NC(=O)[C@H](CCCNC(=N)N)NC(=O)[C@H](CCCNC(=N)N)NC(=O)[C@H]1CCC[C@@H]1NC(=O)[C@H](CC(=O)O)NC(=O)[C@H](CCC(N)=O)NC(=O)[C@@H](NC(=O)C[C@H](Cc1c[nH]c2ccccc12)NC(=O)[C@H](CCCCN)NC(=O)[C@@H](Cc1c[nH]c2ccccc12)NC(=O)[C@H](CC(C)C)NC(=O)[C@H](CC(=O)O)NC(=O)[C@H](Cc1c[nH]cn1)NC(=O)[C@H](CC(C)C)NC(=O)C[C@@H](N)CC(C)C)[C@@H](C)CC)[C@@H](C)O)C(N)=O` is recorded as “decreased” (PTH1R (Homo sapiens, UniProt Q03431, T410R); inverse agonist, GloSensor cAMP; HEK293 expressing PTH1R).
With `Cc1cc(Nc2ccc(SC(F)(F)F)cc2)n2ncnc2n1` the robust Z-score was 23.7 (pyrD; enzyme activity, inhibitor, colorimetric HTS, item: DCIP reduction; 3 µM; direction not given).
Under “LDL lipid peroxidation”, `CC(C)OCCn1c(=S)[nH]c(=O)c2[nH]ccc21` is recorded as 79.6% and 68.9% and 164% and 108% (Myeloperoxidase (MPO, Homo sapiens, UniProt P05164); inhibitor, cholesteryl ester hydroperoxide; 0.0412 µM; relative to: control).
Under “chemical shift change”, `CC(=O)Nc1ccc(O)cc1` is recorded as -0.015 ppm (BRD4 (Homo sapiens, UniProt O60885); 19F NMR, item: tyrosine 118; 48 µM; relative to: free protein).
`CCCC[C@H](NC(=O)[C@H](C)c1c(C)[nH]c2ccc(O)cc12)c1ncc(-c2cc3ccccc3nc2OC)[nH]1` has a Hill coefficient of 1.2 (PTGER3 (Homo sapiens, UniProt P43115)).
`OC[C@H]1OC(O)[C@H](O)[C@@H](O)[C@@H]1O` (some centres unmarked) has a kcat of 3480 ± 600 min⁻¹ (Hexokinase-3 (HK3, Homo sapiens, UniProt P52790, R807A); substrate inhibition; mutant R807A, complete substrate inhibition model, together with: ATP 20 mM).
